{"data": "Results pooled from the literature", "note": "Lines come from different studies, so protocols differ. “And” joins repeats or separate records; there may be more than shown. Numbers after ± are the reported error."}
{"Compound": "CC[C@H](C)[C@H](NC(=O)[C@H](CCCN)NC(=O)[C@H](CCCNC(=N)N)NC(=O)[C@@H]1CCCN1C(=O)[C@@H]1CCCN1C(=O)[C@H](CCCNC(=N)N)NC(=O)[C@@H]1CCCN1C(=O)[C@H](CCCNC(=N)N)NC(=O)[C@@H]1CCCN1C(=O)[C@H](CC(C)C)NC(=O)[C@H](Cc1ccc(O)cc1)NC(=O)[C@@H]1CCCN1C(=O)[C@@H]1CCCN1C(=O)[C@H](CCCCN)NC(=O)[C@H](CC(=O)O)NC(=O)[C@@H](N)C(C)C)C(=O)N[C@@H](Cc1ccc(O)cc1)C(=O)N[C@@H](CC(N)=O)C(=O)N[C@@H](CCCN)C(N)=O", "test": "LC-MS", "test system": "mouse CD-1, female, plasma", "setting": "subcutaneous, 4.34 µmol/kg", "Cmax": "8700 ± 190 ng/mL"}
{"Compound": "O=C(CN1C(=O)C2(CCN(C(=O)c3ccc4[nH]ncc4n3)CC2)c2c(Br)cccc21)NCC(F)(F)F", "test system": "C57BL/6 mouse, male, plasma", "setting": "oral, 10 mg/kg", "Cmax": "38.5 ng/mL"}
{"Compound": "C/C(=N\\OCCCN1CCCCC1)c1ccc(C(F)(F)F)cc1", "test system": "mouse, plasma", "setting": "oral, 100 mg/kg twice daily, day 1", "Cmax": "1670 ± 300 ng/mL"}
{"Compound": "CN[C@H](CC(C)C)C(=O)N[C@H]1C(=O)N[C@@H](CC(N)=O)C(=O)N[C@H]2C(=N)N[C@H]3C(=O)N[C@H](C(=O)N[C@H](C(=O)NCCCNC(=N)N)c4cc(O)cc(O)c4-c4cc3ccc4O)[C@H](O)c3ccc(c(Cl)c3)Oc3cc2cc(c3O[C@@H]2O[C@H](CO)[C@@H](O)[C@H](O)[C@H]2O[C@H]2C[C@](C)(NCc3ccc(-c4ccc(Cl)cc4)cc3)[C@H](O)[C@H](C)O2)Oc2ccc(cc2Cl)[C@H]1O", "test system": "mouse", "setting": "intravenous, 25 mg/kg", "Cmax": "139000 ng/mL"}
{"Compound": "O=C(c1cncc2cc[nH]c12)N1CCC(=C2c3ccccc3CS(=O)(=O)c3ccccc32)CC1", "test system": "mouse", "setting": "oral, 50 mg/kg", "Cmax": "6070 ng/mL and 6060 ng/mL"}
{"Compound": "O=C(Nc1cccs1)c1cccnc1", "test system": "mouse, brain", "setting": "intravenous, 5 mg/kg", "Cmax": "2100 ng/g"}
{"Compound": "O=C(c1cc(Cc2n[nH]c(=O)c3ccccc23)ccc1F)N1CC(CNC2CC2)C1", "test system": "female ICR mouse, plasma", "setting": "oral, 60 mg/kg", "Cmax": "4100 ng/mL"}
{"Compound": "Cc1sc2c(c1C)C(c1ccc(Cl)cc1)=N[C@@H](CC(=O)OC(C)(C)C)c1nnc(C)n1-2", "test system": "CD1 mouse, male", "setting": "oral, 10 mg/kg", "Cmax": "1180 ng/mL"}
{"Compound": "Cc1cc(Nc2nc(C[C@@]3(C(=O)O)CCN(Cc4cccc(Cl)c4F)[C@H](C)C3)cc(C)c2F)n[nH]1", "test system": "mouse, IMR-32 xenograft, plasma", "setting": "oral, 10 mg/kg once daily", "Cmax": "14500 ng/mL"}
{"Compound": "CCOc1ccccc1-n1c(CN2CCNCC2)nc2ccccc2c1=O", "test system": "C57BL/6 mouse, male, plasma", "setting": "intravenous, 1 mg/kg", "Cmax": "3.79 µM"}
{"note": "For quick reference, copied from above:"}
{"Compound": "C/C(=N\\OCCCN1CCCCC1)c1ccc(C(F)(F)F)cc1", "test system": "mouse, plasma", "setting": "oral, 100 mg/kg twice daily, day 1", "Cmax": "1670 ± 300 ng/mL"}
